Experimental data of several laboratories.
Each line is one published result; not all experiments were run side by side. Numbers after ± are the reported error.

Under “duration of m6A inhibition”, `CC1(C)CCN(Cc2ccc(C(=O)NC[C@]3(O)CCCN(c4cc(NCc5ccccc5)ncn4)C3)c(O)c2)CC1` is recorded as ≥ 6 days (U2OS; refers to: m6A in mRNA; 40 µM).
`Cc1cc([C@H](C(=O)N2C[C@H](O)C[C@H]2C(=O)N[C@@H](CC(=O)N2CCC(N3CCC(C#Cc4ccc(C(=O)N[C@H]5C(C)(C)[C@H](Oc6ccc(C#N)c(Cl)c6)C5(C)C)cc4)CC3)CC2)c2ccc(-c3scnc3C)cc2)C(C)C)on1` has an effective concentration of 1000 nM (MDA-MB-453; complete restoration of decrease, refers to: CDKN1A; 24 h).
The IFN-γ/IL-4 ratio of `CCCCCCCCCCCCCC[C@@H](O)[C@@H](O)[C@H](CO[C@H]1O[C@H](CO)[C@H](O)[C@H](O)[C@H]1O)NC(=O)CCCCCCCCc1ccccc1` is reported as 2.17 ± 0.24 (human Vα24+ NKT cells; concentration not given, HeLa-CD1d co-culture; relative to: α-GalCer).
For `C1=[N+]2CCCC[N+]3=Cc4ccc5[n]4[Au-]23[n]2c1ccc2-c1nc2ccccc2nc1-5.F[P-](F)(F)(F)(F)F`, the GI50 was 14 µM (renal cancer cell lines; NCI60 panel mean).
`COc1cc(CNC(=O)C[C@H](C)CCC=C(C)C)ccc1OCc1cn(-c2ccc(Br)cc2)nn1` has a growth percent of 66.3% (K562 leukaemia cells; SRB; 10 µM, 48 h).
For `CC(=O)OC[C@H]1O[C@@H](Sc2sc(C(=O)c3ccc(Br)cc3)c(N)c2-c2nc3ccccc3s2)[C@H](OC(C)=O)[C@@H](OC(C)=O)[C@@H]1OC(C)=O`, the growth was 69.6% (SF-295; SRB; 10 µM, 48 h; relative to: untreated).
`COc1ccc2c3c(oc2c1CC=C(C)C)-c1cc(CC=C(C)C)c(O)cc1OC3` — result for glucose consumption: “inactive” (3T3-L1 adipocytes; activator; up to 100 µM).
`O=Cc1c(O)ccc2ccccc12` — result for “log2 fold change”: 2.54 (HUVEC; RNA sequencing, refers to: CXCL2; 75 µM, 24 h; relative to: DMSO).
`COc1cc(CNC(=O)C[C@H](C)CCC=C(C)C)ccc1OCc1cn(-c2ccc(C#N)cc2)nn1` gave a growth percent of 56.6% (UACC-62 melanoma cells; SRB; 10 µM, 48 h).
`O=C1Nc2ccccc2/C1=N\Nc1nnc2n1N=C(c1ccc(Cl)cc1)CS2` gave an inhibition of 19% (MDA-MB-435; cell growth or viability, SRB; 10 µM).
With `COc1cc(CNC(=O)C[C@H](C)CCC=C(C)C)ccc1OCc1cn(-c2cccc(Cl)c2)nn1` the growth percent was 60.8% (K562 leukaemia cells; SRB; 10 µM, 48 h).
`C=CC(=O)Oc1ccc(Cl)cc1C(=O)Nc1ccc([N+](=O)[O-])cc1Cl`: cell growth “decreased” (CWR22Rv1 cells; total cell number; 0.5 µM, 5 days).
`C[C@H](CC(=O)C[C@@H](C)[C@H]1C[C@H](O)[C@@]2(C)C3=C(C(=O)C[C@]12C)[C@@]1(C)CCC(=O)C(C)(C)[C@@H]1C[C@@H]3O)C(=O)O` gave a glucose consumption of 12 ± 0.37 mmol/L (3T3-L1 adipocytes; 50 µg/mL).
`CCOC(=O)CCC(NC(=O)C(NC(=O)c1c(C)nn(-c2ccc(F)cc2)c1C)C(C)C)C(=O)OCC` (stereo not shown) — result for activity: “inactive” (HEK-Blue Null2 cells; NF-κB reporter gene, agonist; 10 µM, 16 h).
For `COC(=O)[C@H]1[C@H]2C[C@H]3O[C@@]4(CCN3C[C@H]2C[C@@H](OC(=O)c2cc(OC)c(OC)c(OC)c2)[C@@H]1OC)C(=O)Nc1cc(OC)c(-c2ccc(F)cc2)cc14`, “late apoptotic cells” read 48.7 ± 35.2% (RS4;11; annexin V/PI flow cytometry; 5 µM, 72 h).
With `COc1cc(CNC(=O)C[C@H](C)CCC=C(C)C)ccc1OCc1cn(-c2ccc([N+](=O)[O-])cc2)nn1` the growth percent was 80.1% (NCI-H226; SRB; 10 µM, 48 h).
`COc1cc2c(OC3OCC(OC)C(OC)C3OC(=O)c3ccc(Br)cc3)c3c(c(-c4ccc5c(c4)OCO5)c2cc1OC)C(=O)OC3` (stereo not shown): mRNA level “decreased” (FaDu; qRT-PCR, refers to: CTSD; 0.1, 1, 2 µM, 36 h, with: bafilomycin A1 0.1 µM; relative to: DMSO).
With `NCCCCCO[C@H]1O[C@H](COS(=O)(=O)O)[C@@H](O[C@@H]2O[C@@H](C(=O)O)[C@@H](O[C@H]3O[C@H](COS(=O)(=O)O)[C@@H](O[C@@H]4O[C@@H](C(=O)O)[C@@H](O[C@H]5O[C@H](COS(=O)(=O)O)[C@@H](O[C@@H]6O[C@@H](C(=O)O)[C@@H](O[C@H]7O[C@H](COS(=O)(=O)O)[C@@H](O[C@@H]8O[C@@H](C(=O)O)[C@@H](O)[C@H](O)[C@H]8OS(=O)(=O)O)[C@H](O)[C@H]7NS(=O)(=O)O)[C@H](O)[C@H]6OS(=O)(=O)O)[C@H](O)[C@H]5NS(=O)(=O)O)[C@H](O)[C@H]4OS(=O)(=O)O)[C@H](O)[C@H]3NS(=O)(=O)O)[C@H](O)[C@H]2OS(=O)(=O)O)[C@H](O)[C@H]1NS(=O)(=O)O` the wound closure was 50% (human corneal epithelial cells; cell migration, scratch; concentration not given, 24 h).
For `Cc1ccc2c(n1)c1nc(C)ccc1c1nc3cc4ccccc4cc3nc21.[Ru+2].c1ccc(-c2cccc(-c3ccccn3)n2)nc1.c1ccncc1`, the phototherapeutic index was > 100 (M1 murine macrophages; relative to: dark EC50 over light EC50).
For `CC(=O)N[C@H](C(=O)N[C@H](C(=O)N[C@@H](CCCNC(=N)N)C(=O)N1Cc2ccccc2C[C@H]1C(=O)N[C@@H](Cc1ccccc1)C(N)=O)C1CCCCC1)C(C)C`, the cytokine level was 7.2 ± 5.2 pg/mL (MBP-specific BC-3 T cells; Bio-Plex multiplex, refers to: IL-12(p70); 200 µg/mL, 24 h, with: MBP87-99 antigen).
The inhibition of `C[C@H](C(=O)Nc1ccc(Cn2cc(C(F)(F)F)ccc2=O)cc1)N(C)C` is reported as 60.2% (NIH3T3; cell growth or viability, CCK-8; 1 mM).
`CC(=O)OC[C@H]1O[C@@H](Sc2sc(C(=O)c3ccc(C)cc3)c(N)c2-c2nc3ccccc3s2)[C@H](OC(C)=O)[C@@H](OC(C)=O)[C@H]1OC(C)=O` gave a growth of 61.2% (RPMI-8226; SRB; 10 µM, 48 h).
`CC/C=C\C/C=C\C/C=C\C/C=C\C/C=C\C/C=C\CCC(=O)Nc1ccn(C2OC(CO)C(O)C2(F)F)c(=O)n1` (stereo not shown) gave a TGI of 18.1 µM (MDA-MB-435; NCI60 screen).
`CCC(=C(c1ccc(Cl)cc1)c1ccc(OCCCN(C)C)cc1)c1ccc(OC)cc1` gave a GI50 of 1.17 µM (RPMI-8226; cell growth or viability).
For `COc1ccc([C@@H]2CC(=O)c3c(O)cc(O[C@@H]4O[C@H](CO[C@@H]5O[C@@H](C)[C@H](O)[C@@H](O)[C@H]5O)[C@@H](O)[C@H](O)[C@H]4O)cc3O2)cc1O`, the cell count was 9170 ± 414 (A549; trypan blue exclusion; 150 µg/mL, 48 h).
`C=C1C(=O)OC2C=C(C)CCC=C(C(=O)OC(C)C(C)(O)C(=O)OC3C(OC(C)=O)C(C(=O)OC)=CCCC(C)=CC4OC(=O)C(=C)C43)CC(OC(=O)C(C)=CC)C12` (stereo not shown): “G2/M phase cells” 2.7 (HeLa; PI flow cytometry; 3 µM, 48 h, unit not given; relative to: untreated).
Under “AIM2 inflammasome activation”, `O=C(O)c1ccc(/C=C2\SC(=S)N(Cc3cccc(C(F)(F)F)c3)C2=O)cc1` is recorded as “no effect” (LPS-primed mouse BMDM; refers to: IL-1β; concentration not given, with: poly(dA:dT)).
`COC(=O)N1c2ccc3c(nc(Cc4ccccc4)n3[C@@H]3CCC[C@@H](C(=O)O)C3)c2CC[C@@H]1C`: “SPDEF and AQP3 mRNA level” “decreased” (MDA-MB-453; qPCR; 0.156, 0.625, 2.5 µM, 24 h, with: R1881 10 nM).
For `O=C(N1CCCC1)n1cc(-c2ccc(-c3ccccc3)cc2)nn1`, the SILAC ratio was 1.05 ± 0.08 (mouse T-cells; N-terminal labeled proteins, N-terminal enrichment proteomics, refers to: S100A4; 1 nM, 6 h; relative to: DMSO).
Under “reduction of clonogenic potential”, `CCOP(=O)(OCC)C(Cc1c(F)c(F)c(Sc2ccc(OC)cc2)c(F)c1F)Nc1ccccc1` (stereo not shown) is recorded as 25% (T98G; 50 µM; relative to: untreated).
`COc1ccc(-c2ocnc2-c2cc(Br)c(OC)c(OC)c2)cc1OCCCC(=O)NO` — result for “concentration at maximal caspase-3 activity”: 0.6 µM (HepG2 and Huh-7).
Under “other ROS production”, `O=C(OCc1cccc(O)c1O)c1ccc(O)c(CO)c1` is recorded as “no effect” (HPMEC; DHE HPLC; 5 µM, with: angiotensin II).
For `CCn1c2ccccc2c2cc(C(O)c3cccc4ncccc34)ccc21` (stereo not shown), S-phase cells read “inactive” (T98G; BrdU incorporation; concentration not given, 72 h).
`O=C1Nc2ccc(Cl)cc2C1=Cc1c(Cl)[nH]c2c1ccc1ccccc12` gave a TGI of 8.32 µM (NCI-60 panel mean; 48 h).
